Measured values collected from several papers.
Numbered parts are unrelated; each lists some results of a single study.
Chain of UniProt P53778 (whole entry, looked up): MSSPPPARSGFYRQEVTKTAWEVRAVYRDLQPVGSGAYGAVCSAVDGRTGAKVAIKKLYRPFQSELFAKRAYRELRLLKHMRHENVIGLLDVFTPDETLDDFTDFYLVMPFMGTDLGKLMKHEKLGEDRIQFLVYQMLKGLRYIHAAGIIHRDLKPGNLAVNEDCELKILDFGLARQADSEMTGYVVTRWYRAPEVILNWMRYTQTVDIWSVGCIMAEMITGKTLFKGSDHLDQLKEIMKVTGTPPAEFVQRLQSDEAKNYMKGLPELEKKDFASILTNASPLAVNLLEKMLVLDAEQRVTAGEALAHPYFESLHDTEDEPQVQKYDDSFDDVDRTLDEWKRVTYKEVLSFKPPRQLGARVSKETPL
Chain of UniProt Q9NWZ3 (whole entry, looked up): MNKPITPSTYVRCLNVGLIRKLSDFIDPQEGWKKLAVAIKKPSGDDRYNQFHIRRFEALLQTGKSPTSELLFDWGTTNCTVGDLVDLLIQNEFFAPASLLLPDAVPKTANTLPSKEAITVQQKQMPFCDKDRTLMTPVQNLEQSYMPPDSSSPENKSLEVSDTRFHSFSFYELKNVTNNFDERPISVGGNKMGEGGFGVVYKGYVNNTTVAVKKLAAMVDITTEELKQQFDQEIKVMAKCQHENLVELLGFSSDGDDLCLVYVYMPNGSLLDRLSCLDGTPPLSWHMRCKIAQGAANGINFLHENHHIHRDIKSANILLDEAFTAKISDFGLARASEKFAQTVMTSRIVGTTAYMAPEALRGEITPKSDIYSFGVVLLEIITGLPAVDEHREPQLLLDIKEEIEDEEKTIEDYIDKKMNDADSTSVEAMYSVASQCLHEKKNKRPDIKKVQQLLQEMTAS
Chain of UniProt Q08881 (whole entry, looked up): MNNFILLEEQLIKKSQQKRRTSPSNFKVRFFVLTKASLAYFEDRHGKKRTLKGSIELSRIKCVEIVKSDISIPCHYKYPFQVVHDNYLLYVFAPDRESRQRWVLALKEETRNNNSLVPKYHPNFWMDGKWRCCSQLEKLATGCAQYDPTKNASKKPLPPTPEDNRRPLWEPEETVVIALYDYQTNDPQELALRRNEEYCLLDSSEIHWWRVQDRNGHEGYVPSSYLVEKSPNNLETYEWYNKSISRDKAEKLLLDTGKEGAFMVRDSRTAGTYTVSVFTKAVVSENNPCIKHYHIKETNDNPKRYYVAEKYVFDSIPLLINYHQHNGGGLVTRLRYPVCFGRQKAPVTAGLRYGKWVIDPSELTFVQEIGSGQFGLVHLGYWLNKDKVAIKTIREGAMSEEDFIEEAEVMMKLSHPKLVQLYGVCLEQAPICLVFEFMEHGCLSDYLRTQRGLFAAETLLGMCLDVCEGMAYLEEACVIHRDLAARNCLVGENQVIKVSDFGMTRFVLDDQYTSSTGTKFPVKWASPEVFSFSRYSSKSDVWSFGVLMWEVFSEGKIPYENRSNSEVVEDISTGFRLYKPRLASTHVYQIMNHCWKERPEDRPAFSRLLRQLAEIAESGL
Chain of UniProt Q9Y243 (whole entry, looked up): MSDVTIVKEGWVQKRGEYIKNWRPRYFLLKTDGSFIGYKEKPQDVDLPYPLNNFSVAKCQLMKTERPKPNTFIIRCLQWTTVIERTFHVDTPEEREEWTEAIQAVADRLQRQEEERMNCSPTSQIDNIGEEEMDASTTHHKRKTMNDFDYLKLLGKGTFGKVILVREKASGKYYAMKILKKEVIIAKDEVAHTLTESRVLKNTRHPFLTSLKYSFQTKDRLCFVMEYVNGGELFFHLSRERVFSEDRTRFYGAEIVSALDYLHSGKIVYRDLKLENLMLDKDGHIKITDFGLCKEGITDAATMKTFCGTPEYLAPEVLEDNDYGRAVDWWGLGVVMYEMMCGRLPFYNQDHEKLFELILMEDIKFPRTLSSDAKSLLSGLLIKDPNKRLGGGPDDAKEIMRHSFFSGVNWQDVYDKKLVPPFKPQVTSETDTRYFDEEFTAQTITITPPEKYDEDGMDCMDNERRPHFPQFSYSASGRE

Block 1
Target: Calcium/calmodulin-dependent protein kinase type II subunit alpha (CAMK2A, Homo sapiens, UniProt Q9UQM7)
Chain of UniProt Q9UQM7 (whole entry, looked up): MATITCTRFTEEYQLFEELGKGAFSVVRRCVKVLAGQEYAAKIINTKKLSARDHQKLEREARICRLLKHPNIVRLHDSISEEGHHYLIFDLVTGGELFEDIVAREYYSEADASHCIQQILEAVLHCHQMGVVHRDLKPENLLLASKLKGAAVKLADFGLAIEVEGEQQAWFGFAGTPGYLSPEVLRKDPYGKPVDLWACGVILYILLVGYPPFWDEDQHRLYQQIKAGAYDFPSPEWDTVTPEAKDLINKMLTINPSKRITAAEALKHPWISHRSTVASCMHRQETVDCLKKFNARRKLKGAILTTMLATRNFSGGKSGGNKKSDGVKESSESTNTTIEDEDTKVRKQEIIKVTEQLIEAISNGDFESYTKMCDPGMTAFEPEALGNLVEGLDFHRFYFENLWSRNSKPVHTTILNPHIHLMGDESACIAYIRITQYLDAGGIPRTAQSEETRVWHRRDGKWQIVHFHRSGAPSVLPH
Read-out: enzyme activity
Action: inhibitor
Tested at: 10 µM
With `O=C1C=CN(c2c(F)cc(N3C[C@H](CNc4ccon4)OC3=O)c(F)c2F)CC1` the inhibition was 3%.
For `COc1cc(O)cc(OC)c1`, the inhibition was -42%.
`CN1CCc2cc3c(cc2C(=O)Cc2ccc4c(c2C1)OCO4)OCO3` gave an inhibition of -29%.
For `CCCCCCCCCCCCOCCOCCOCCOCCOCCOCCOCCOCCOCCO`, the inhibition was -9%.
`C=C(CCC=C(C)C)[C@H]1CC[C@]2(C)[C@@H]1[C@H](O)C[C@@H]1[C@@]3(C)CC[C@H](O[C@@H]4O[C@H](CO)[C@@H](O)[C@H](O)[C@H]4O[C@@H]4O[C@H](CO)[C@@H](O)[C@H](O)[C@H]4O)C(C)(C)[C@@H]3CC[C@]12C` has an inhibition of -6%.
The inhibition of `COc1cc(O)cc(OC)c1OC` is reported as -44%.
`CC(C)[C@@H]1CC[C@@H](C)C[C@H]1O` (racemic) gave an inhibition of 0.21%.
`CCOc1ccc(Nc2ccc(/C(=C3C=C/C(=[N+](/CC)Cc4cccc(S(=O)(=O)[O-])c4)C=C/3C)c3ccc(N(CC)Cc4cccc(S(=O)(=O)O)c4)cc3C)cc2)cc1` gave an inhibition of 13%.
With `CC(C)(O)[C@H]1Cc2cc3cc(-c4cc(O)cc(O)c4)oc3cc2O1` the inhibition was -11%.
For `CC(O)Cn1cnc2c1c(=O)n(C)c(=O)n2C` (centres unmarked), the inhibition was 7%.
For `CC1=C(C=O)C(C)(C)CC=C1`, the inhibition was 27%.
`CC(C)(C)C(O)/C=C/c1ccc2c(c1)OCO2` (centres unmarked) gave an inhibition of -5%.
`C[C@H](Nc1ncnc2nc[nH]c12)c1cc2cccc(Cl)c2c(=O)n1-c1ccccc1` has an inhibition of -2%.
`CC(C)(O)[C@@H]1Cc2cc3ccc(=O)oc3cc2O1` has an inhibition of -19%.
`O=c1ccc2ccc(O[C@@H]3O[C@H](CO)[C@@H](O)[C@H](O)[C@H]3O)c(O)c2o1` has an inhibition of 34%.
The inhibition of `C=C[C@H]1[C@H](O[C@@H]2O[C@H](CO)[C@@H](O)[C@H](O)[C@H]2O)OC=C(C(=O)OC)[C@H]1CC=O` is reported as 1%.

Block 2
SMILES: O=C(O)c1cc(-c2ccc(C3CCNCC3)cc2)c2ccc(-c3ccc(C(F)(F)F)cc3)cc2c1
Read-out: cell-free assay
Method: competition with immobilised ligand
Tested at: 1 µM
For NIM1K (Homo sapiens, UniProt Q8IY84): remaining binding read 94%.
NTRK1 (Homo sapiens, UniProt P04629) — remaining binding: 100%.
It gave 98% for remaining binding (MINK1 (Homo sapiens, UniProt Q8N4C8)).
For CAMKK1 (Homo sapiens, UniProt Q8N5S9): remaining binding read 100%.
For TSSK1B (Homo sapiens, UniProt Q9BXA7): remaining binding read 100%.
For MAPK12 (Homo sapiens, UniProt P53778): remaining binding read 99%.
It gave 100% for remaining binding (CDK8 (Homo sapiens, UniProt P49336)).
The remaining binding was 90% (RET (Homo sapiens, UniProt P07949)).
It gave 100% for remaining binding (Ribosomal protein S6 kinase alpha-1, N-terminal kinase domain (RPS6KA1, Homo sapiens, UniProt Q15418)).
For GRK4 (Homo sapiens, UniProt P32298): remaining binding read 72%.
It gave 100% for remaining binding (Tyrosine-protein kinase ABL1, phosphorylated (ABL1, Homo sapiens, UniProt P00519, F317L)).
The remaining binding was 100% (MAP2K3 (Homo sapiens, UniProt P46734)).
For MAP3K2 (Homo sapiens, UniProt Q9Y2U5): remaining binding read 100%.
The remaining binding was 100% (NEK9 (Homo sapiens, UniProt Q8TD19)).
It gave 100% for remaining binding (ULK3 (Homo sapiens, UniProt Q6PHR2)).
The remaining binding was 100% (ITK (Homo sapiens, UniProt Q08881)).
CSK (Homo sapiens, UniProt P41240) — remaining binding: 100%.
The remaining binding was 100% (EPHA3 (Homo sapiens, UniProt P29320)).
It gave 100% for remaining binding (IRAK4 (Homo sapiens, UniProt Q9NWZ3)).
EPHA6 (Homo sapiens, UniProt Q9UF33) — remaining binding: 100%.
SIK3 (Homo sapiens, UniProt Q9Y2K2) — remaining binding: 100%.
It gave 100% for remaining binding (AXL (Homo sapiens, UniProt P30530)).
PHKG1 (Homo sapiens, UniProt Q16816) — remaining binding: 100%.
It gave 100% for remaining binding (PRKD1 (Homo sapiens, UniProt Q15139)).
It gave 100% for remaining binding (Tyrosine-protein kinase ABL1, non-phosphorylated (ABL1, Homo sapiens, UniProt P00519, Q252H)).

Block 3
Structure (SMILES): O=C1Cc2c([nH]c3ccc([N+](=O)[O-])cc23)-c2ccccc2N1
Read-out: enzyme activity
Action: inhibitor
Tested at: 0.5 µM
Baseline: control
The remaining activity was 94.1% (AKT3 (Homo sapiens, UniProt Q9Y243)).
It gave 112% for remaining activity (MAPK12 (Homo sapiens, UniProt P53778)).
For LRRK2 (Homo sapiens, UniProt Q5S007): remaining activity read 96.5%.
It gave 98.3% for remaining activity (MAP2K6 (Homo sapiens, UniProt P52564)).
It gave 109% for remaining activity (NEK4 (Homo sapiens, UniProt P51957)).
CSNK2A1 (Homo sapiens, UniProt P68400) — remaining activity: 86.8%.
For CSNK1A1 (Homo sapiens, UniProt P48729): remaining activity read 103%.
PRKG1 (Homo sapiens, UniProt Q13976) — remaining activity: 94.3%.
It gave 98.6% for remaining activity (EPHA5 (Homo sapiens, UniProt P54756)).
For MAP3K10 (Homo sapiens, UniProt Q02779): remaining activity read 48.6%.
PRKCI (Homo sapiens, UniProt P41743) — remaining activity: 83.3%.
For CHEK1 (Homo sapiens, UniProt O14757): remaining activity read 37.5%.
The remaining activity was 37.2% (LYN (Homo sapiens, UniProt P07948)).
KIT (Homo sapiens, UniProt P10721) — remaining activity: 83.7%.
WNK2 (Homo sapiens, UniProt Q9Y3S1) — remaining activity: 116%.
PRKCD (Homo sapiens, UniProt Q05655) — remaining activity: 79.8%.
PLK2 (Homo sapiens, UniProt Q9NYY3) — remaining activity: 106%.
For MAP4K2 (Homo sapiens, UniProt Q12851): remaining activity read 8.77%.
Cyclin-dependent kinase 9, with cyclin T1 (CDK9, Homo sapiens, UniProt P50750) — remaining activity: 22.6%.
MKNK2 (Homo sapiens, UniProt Q9HBH9) — remaining activity: 92.9%.
IRAK4 (Homo sapiens, UniProt Q9NWZ3) — remaining activity: 167%.
The remaining activity was 98.2% (BTK (Homo sapiens, UniProt Q06187)).

Block 4
Target: DNA polymerase theta, helicase domain (POLQ, Homo sapiens, UniProt O75417)
Chain of UniProt O75417 (whole entry, looked up): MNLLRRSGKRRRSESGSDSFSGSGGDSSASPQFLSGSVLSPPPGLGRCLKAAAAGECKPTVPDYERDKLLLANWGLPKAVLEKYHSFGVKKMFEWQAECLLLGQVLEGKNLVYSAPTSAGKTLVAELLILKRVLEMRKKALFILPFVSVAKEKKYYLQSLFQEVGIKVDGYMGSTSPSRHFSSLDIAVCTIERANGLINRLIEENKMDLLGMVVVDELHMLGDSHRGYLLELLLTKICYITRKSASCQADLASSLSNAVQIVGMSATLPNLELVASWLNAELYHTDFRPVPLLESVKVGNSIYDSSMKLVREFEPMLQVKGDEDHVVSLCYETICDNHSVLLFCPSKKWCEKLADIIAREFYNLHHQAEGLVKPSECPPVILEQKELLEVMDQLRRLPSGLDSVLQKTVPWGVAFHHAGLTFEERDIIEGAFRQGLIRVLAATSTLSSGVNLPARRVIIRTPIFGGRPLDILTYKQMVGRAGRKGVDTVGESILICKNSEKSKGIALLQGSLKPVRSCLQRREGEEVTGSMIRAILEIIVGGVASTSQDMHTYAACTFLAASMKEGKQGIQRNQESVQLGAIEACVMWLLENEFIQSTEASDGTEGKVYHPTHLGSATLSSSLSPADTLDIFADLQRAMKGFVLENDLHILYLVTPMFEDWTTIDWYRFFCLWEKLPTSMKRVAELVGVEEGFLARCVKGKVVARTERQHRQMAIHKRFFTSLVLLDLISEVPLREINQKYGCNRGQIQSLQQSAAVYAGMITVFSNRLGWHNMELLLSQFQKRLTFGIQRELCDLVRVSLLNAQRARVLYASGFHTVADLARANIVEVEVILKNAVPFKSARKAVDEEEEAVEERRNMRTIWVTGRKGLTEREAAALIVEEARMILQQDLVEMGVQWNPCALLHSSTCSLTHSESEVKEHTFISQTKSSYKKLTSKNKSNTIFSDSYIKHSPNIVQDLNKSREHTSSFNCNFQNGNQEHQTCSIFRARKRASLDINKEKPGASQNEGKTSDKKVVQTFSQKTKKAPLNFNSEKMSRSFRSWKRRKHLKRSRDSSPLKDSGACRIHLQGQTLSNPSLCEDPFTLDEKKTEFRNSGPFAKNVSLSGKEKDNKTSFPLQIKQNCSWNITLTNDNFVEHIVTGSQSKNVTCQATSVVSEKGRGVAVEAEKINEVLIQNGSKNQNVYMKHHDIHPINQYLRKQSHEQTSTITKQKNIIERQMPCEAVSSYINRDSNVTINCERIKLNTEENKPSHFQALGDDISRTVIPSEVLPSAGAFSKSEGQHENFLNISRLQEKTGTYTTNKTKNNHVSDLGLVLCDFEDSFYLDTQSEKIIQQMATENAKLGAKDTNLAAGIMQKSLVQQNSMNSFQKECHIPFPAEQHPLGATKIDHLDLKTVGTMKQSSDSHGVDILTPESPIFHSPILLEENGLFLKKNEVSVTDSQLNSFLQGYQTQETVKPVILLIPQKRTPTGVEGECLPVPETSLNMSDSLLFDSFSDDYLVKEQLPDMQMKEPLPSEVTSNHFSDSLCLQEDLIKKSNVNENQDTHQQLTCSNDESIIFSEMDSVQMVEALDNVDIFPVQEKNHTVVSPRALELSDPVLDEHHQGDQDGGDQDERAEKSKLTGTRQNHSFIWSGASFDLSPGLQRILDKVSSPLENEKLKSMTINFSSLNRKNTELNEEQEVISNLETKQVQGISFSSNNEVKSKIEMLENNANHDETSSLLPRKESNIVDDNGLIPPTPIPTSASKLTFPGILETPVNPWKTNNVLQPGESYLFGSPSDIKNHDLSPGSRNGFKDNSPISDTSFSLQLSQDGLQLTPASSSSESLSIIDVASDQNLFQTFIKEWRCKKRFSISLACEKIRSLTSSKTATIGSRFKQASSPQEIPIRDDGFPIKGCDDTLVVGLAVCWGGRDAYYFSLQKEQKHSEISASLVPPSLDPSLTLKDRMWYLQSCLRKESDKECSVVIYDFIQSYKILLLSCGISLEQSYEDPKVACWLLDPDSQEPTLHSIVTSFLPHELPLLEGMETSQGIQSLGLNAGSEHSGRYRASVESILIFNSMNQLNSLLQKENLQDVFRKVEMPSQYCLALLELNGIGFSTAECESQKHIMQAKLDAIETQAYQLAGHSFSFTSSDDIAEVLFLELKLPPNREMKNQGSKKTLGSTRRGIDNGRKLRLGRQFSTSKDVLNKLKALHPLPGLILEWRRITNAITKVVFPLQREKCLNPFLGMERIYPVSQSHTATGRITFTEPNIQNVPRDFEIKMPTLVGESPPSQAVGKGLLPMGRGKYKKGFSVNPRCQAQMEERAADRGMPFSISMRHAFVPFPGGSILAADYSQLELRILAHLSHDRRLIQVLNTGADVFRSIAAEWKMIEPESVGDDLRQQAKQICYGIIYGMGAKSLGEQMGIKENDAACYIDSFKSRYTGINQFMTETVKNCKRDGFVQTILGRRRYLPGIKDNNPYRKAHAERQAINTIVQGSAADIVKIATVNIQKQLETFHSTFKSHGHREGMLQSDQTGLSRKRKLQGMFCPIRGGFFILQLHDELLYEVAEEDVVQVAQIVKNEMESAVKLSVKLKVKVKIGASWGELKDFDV
Read-out: enzyme activity
Tested at: concentration not given
Notes: without ssDNA
`CCOc1ccccc1NC(=O)CSc1ncc(S(=O)(=O)c2ccc(C(C)(C)C)cc2)c(=O)[nH]1` has a remaining activity of 71.4%.
`COc1cccc2c1C(=O)c1c(O)c3c(c(O)c1C2=O)C[C@@](O)(C(=O)CO)C[C@@H]3O[C@H]1C[C@H](N)[C@H](O)[C@H](C)O1` gave a remaining activity of 96.2%.
The remaining activity of `CC1(C)Cc2c(-c3ccccc3)c(-c3ccc(Cl)cc3)c(CC(=O)O)n2C1` is reported as 50.4%.
With `CSc1ccc(/C=C/c2nc3ccccc3n2S(=O)(=O)c2ccc(Br)cc2)cc1` the remaining activity was 68.4%.
With `Cc1ccc(C2C=C(c3ccccc3)N=C3N=C(NS(C)(=O)=O)NN32)cc1` (centres unmarked) the remaining activity was 89.4%.
The remaining activity of `Cc1ccc(C(=O)c2cc(O)c(O)c([N+](=O)[O-])c2)cc1` is reported as 42.4%.
`CCOc1nc2cccc(C(=O)OCc3oc(=O)oc3C)c2n1Cc1ccc(-c2ccccc2-c2noc(=O)[nH]2)cc1` gave a remaining activity of 54.6%.
With `O=C(Nc1noc2ccccc12)c1ccc(F)cc1` the remaining activity was 52.8%.
With `Cc1nc(N=Nc2cc(S(=O)(=O)O)c3cc([N+](=O)[O-])cc(S(=O)(=O)O)c3c2)c(COP(=O)(O)O)c(C=O)c1O` the remaining activity was 154%.
`COc1cc(NC(=O)CSc2ncc(S(=O)(=O)c3ccc(Br)cc3)c(=O)[nH]2)cc(OC)c1` has a remaining activity of 96.3%.
With `O=C(Nc1cc2cc[nH]c2cn1)c1ccccc1` the remaining activity was 51.3%.

Excerpt of the above (block 1):
With `CC(C)(O)[C@H]1Cc2cc3cc(-c4cc(O)cc(O)c4)oc3cc2O1` the inhibition was -11%.
For `CC(O)Cn1cnc2c1c(=O)n(C)c(=O)n2C` (centres unmarked), the inhibition was 7%.
For `CC1=C(C=O)C(C)(C)CC=C1`, the inhibition was 27%.
`CC(C)(C)C(O)/C=C/c1ccc2c(c1)OCO2` (centres unmarked) gave an inhibition of -5%.
`C[C@H](Nc1ncnc2nc[nH]c12)c1cc2cccc(Cl)c2c(=O)n1-c1ccccc1` has an inhibition of -2%.
`CC(C)(O)[C@@H]1Cc2cc3ccc(=O)oc3cc2O1` has an inhibition of -19%.
`O=c1ccc2ccc(O[C@@H]3O[C@H](CO)[C@@H](O)[C@H](O)[C@H]3O)c(O)c2o1` has an inhibition of 34%.
